Results collected from several papers.
Protocols differ between the studies behind these lines. Several values in a cell are separate wells, animals, samples, runs or records. ± gives the spread as reported.

C=CC(=O)Nc1cc(Nc2nccc(-c3cn(C)c4ccccc34)n2)c(OC)cc1N(C)CCN(C)C  percentage recovery (storage stability; human plasma samples; 30 d, -80 °C, LLOQ level; baseline: nominal concentration): 14.4%
Cc1c(-c2ccc(N3CCc4cccc(C(=O)Nc5nc6ccccc6s5)c4C3)nc2C(=O)O)cnn1CC12CC3(C)CC(C)(C1)CC(OCCNCC[C@H](O)CO)(C3)C2  mean arterial pressure change (beagle dog, male, anaesthetised; intravenous infusion, 0.01 mg/kg/min, 150 min; baseline: baseline): 9 mmHg
C[C@H]1CN(C(=O)CC#N)[C@]12CCN(c1ncnc3[nH]ccc13)C2  participants with serious TEAEs (human; oral, 12 mg single dose): 0%
N#Cc1ccc2c(c1)[C@H]1CCCN(C(=O)c3ccc4[nH]cnc4c3)[C@H]1C2  DHEA-S level (human, male; 20 mg, day 7): 6.8 µmol/L
COc1ncc(-c2nc3c(n2C(C)C)[C@H](c2ccc(Cl)cc2)N(c2cc(Cl)cn(C)c2=O)C3=O)c(OC)n1  AUC(0-t) geometric mean (human patients, plasma; oral, 25 mg, 0-24 h, low-dose arm, cycle 2 day 1): 2840 ng·h/mL
Cc1ccc(Sc2ccccc2N2CCNCC2)c(C)c1  participants with TEAE (refers to: feeling abnormal; healthy adult men; oral, 20 mg daily, 12 days): 0%
Cc1c(Cl)c(C)[n+]([O-])c(Cl)c1-c1noc(-c2cc(O)c(O)c([N+](=O)[O-])c2)n1  adverse event incidence (refers to: Severe severity; healthy Caucasian subjects; oral, 25 mg): 0%
CC(C)C[C@H](NC(=O)[C@@H](Cc1c[nH]c2ccccc12)NC(=O)[C@H](Cc1ccc(O)cc1)NC(=O)[C@H](CO)NC(=O)[C@H](Cc1c[nH]c2ccccc12)NC(=O)[C@H](Cc1c[nH]cn1)NC(=O)[C@@H]1CCC(=O)N1)C(=O)N[C@@H](CCCNC(=N)N)C(=O)N1CCC[C@H]1C(=O)NCC(N)=O  patients, drug-related Constipation TEAEs (Chinese CPP boys; intramuscular, 22.5 mg, 12 months, day 1, month 6): 0%
O=C1NCCc2nc(OCc3cccc(F)c3)ccc21  motor activity score (modified Irwin test; Sprague-Dawley rat, male; oral, 100 mg/kg, 1 h; higher = stronger change): 0.6
Cn1cncc1-c1c(F)cncc1NC(=O)c1c(N)nn2cc(F)cnc12  grade ≥3 adverse events (patients, advanced solid tumours; oral, 180 mg once daily, 2 weeks on 1 week off; baseline: patients): 0%
COc1ccc([C@@H](O)c2cc(-c3ncnc4cc(N5CCOCC5)ccc34)c(F)cc2Cl)nn1  nausea TEAE incidence (locally advanced rectal cancer patients; 250 mg, with: capecitabine and radiotherapy): 33%
Cc1cccc(CNC(=O)c2cn(CCNC(=O)c3ccccc3Sc3c([N+](=O)[O-])ncn3C)c3cc4c(cc3c2=O)OC(F)(F)O4)n1  AUC(0-t) (Sprague-Dawley rat, male, whole blood; intravenous, 5 mg/kg of parent compound): 71 ± 6.87 ng·h/mL
NC1(C(=O)N[C@@H](CCO)c2ccc(Cl)cc2)CCN(c2nc[nH]c3nccc2-3)CC1  incidence of Stomatitis (metastatic CRPC patients; 400 mg b.i.d., grade 3 to 4, treatment-related, with: enzalutamide 160 mg daily): 0%
CCc1nn(C)c2nc(-c3ccc(C(=O)O)cc3)nc(NCc3ccc(F)cc3)c12  body weight (NSG mice; dose not given, day 5 of treatment): 21.3 g and 21.9 g and 20.8 g
Cc1nc(-c2cnc(NC(C)C)n(C)c2=O)ccc1Oc1ccnc(-c2cnn(C)c2)c1  apparent volume of distribution (DBA/1 mouse, female, plasma; oral, 15 mg/kg, single dose): 1.17 L/kg
O=C(Nc1c2c(cc3c1CCC3)CCC2)NS(=O)(=O)/C=C/c1nccs1  metabolized fraction (rat liver microsomes; 1 µM, 30 min, with: NADPH): 8.6%
CNC(=O)c1ccc(-c2cnc3ncc(Cc4ccc5ncccc5c4)n3n2)cc1F  Nausea dose reduction/interruption (Japanese patients; oral, 400 mg, any grade): 2%
C[C@@H](O)CCOC(=O)C[C@@H](C)O  heart rate (human; oral drink, dose not given, 240 min post dose, mean): 73 beats/min
CSc1cc(C)nc(SC)c1NC(=O)CN1CCN(CCSc2nc3ccccc3[nH]2)CC1.Cl  concentration (mouse, olfactory bulb; intranasal, 10 µL in 0.01 N HCl daily, 120 min, 7 days dosing): not detected
O=C(O)CCCOc1ccc([18F])cc1-c1cc(-c2ccccc2C(F)(F)F)n(-c2ccccc2)n1  heart uptake (healthy Lewis rat; dose not given): 15.6 ± 2.7 SUV
COc1ccnc(C(N)=O)c1O  DT50 (aerobic dark soil incubation; clay loam soil; 20 °C, persistence endpoint): 10.1 days
CCn1cc(C(=O)N2CCOCC2)c(=O)c2cc(NC3Cc4ccccc4C3)cnc21  AUC(0-last) (human, fed; oral tablet, 300 mg single dose, arithmetic mean): 13800 ng·h/mL
Cn1cc([C@H]2C[C@H]3CSC(N)=N[C@@]3(c3ccc(F)cc3F)CO2)cn1  plasma concentration (male 129/SVE mouse, plasma; subcutaneous, 50 mg/kg, 13 h): 527 nM
COc1cc(C(=O)N2CCC3(CC2)CC(=O)c2c(cnn2C(C)C)C3)cc(-c2ccc(C(=O)O)cc2)n1  percentage change from baseline (refers to: HDL cholesterol; human, fasting serum; 100 mg every 12 h, day 13, adjusted geometric mean; baseline: baseline): -17.3%
OC[C@H]1O[C@@H](c2ccc(F)c(Cc3cc4ccccc4s3)c2)[C@H](O)[C@@H](O)[C@@H]1O  hypoglycaemia-related adverse event (Japanese patients, type 1 diabetes; oral, 25 mg/day, onset day 6; baseline: patients): 4%
CCCCOC(=O)N1CCN(C(=O)[C@H](CP(=O)(O)O)NC(=O)c2cc(N3CC[C@H](OC)C3)nc(-c3ccccc3)n2)CC1  change from baseline (refers to: Potassium; human, blood; 8 mg, 24 h): 0.12 ± 0.31 mmol/L
O=C(Nc1ccc(OC(F)(F)Cl)cc1)c1cnc(N2CC[C@@H](O)C2)c(-c2ccn[nH]2)c1  any-grade event rate (per treatment cycle, refers to: amylase increase; human patients; oral, dose not given, 28 day cycle): 2.2%
CCCCCCCCCCCCCCCC(=O)N[C@@H](CCC(=O)NCCCC[C@H](NC(=O)[C@H](C)NC(=O)[C@H](C)NC(=O)[C@H](CCC(N)=O)NC(=O)CNC(=O)[C@H](CCC(=O)O)NC(=O)[C@H](CC(C)C)NC(=O)[C@H](Cc1ccc(O)cc1)NC(=O)[C@H](CO)NC(=O)[C@H](CO)NC(=O)[C@@H](NC(=O)[C@H](CC(=O)O)NC(=O)[C@H](CO)NC(=O)[C@@H](NC(=O)[C@H](Cc1ccccc1)NC(=O)[C@@H](NC(=O)CNC(=O)[C@H](CCC(=O)O)NC(=O)[C@H](C)NC(=O)[C@@H](N)Cc1cnc[nH]1)[C@@H](C)O)[C@@H](C)O)C(C)C)C(=O)N[C@@H](CCC(=O)O)C(=O)N[C@@H](Cc1ccccc1)C(=O)N[C@H](C(=O)N[C@@H](C)C(=O)N[C@@H](Cc1c[nH]c2ccccc12)C(=O)N[C@@H](CC(C)C)C(=O)N[C@H](C(=O)N[C@@H](CCCNC(=N)N)C(=O)NCC(=O)N[C@@H](CCCNC(=N)N)C(=O)NCC(=O)O)C(C)C)[C@@H](C)CC)C(=O)O  V/F (population PK model; human, plasma; subcutaneous): 24.6 L
CC(C(=O)NCC(=O)NCC(CNC(=O)CNC(=O)C(C)N1CCN(CC(=O)[O-])CCN(CC(=O)[O-])CCN(CC(=O)[O-])CC1)(CNC(=O)CNC(=O)C(C)N1CCN(CC(=O)[O-])CCN(CC(=O)[O-])CCN(CC(=O)[O-])CC1)CNC(=O)CNC(=O)C(C)N1CCN(CC(=O)[O-])CCN(CC(=O)[O-])CCN(CC(=O)[O-])CC1)N1CCN(CC(=O)[O-])CCN(CC(=O)[O-])CCN(CC(=O)[O-])CC1.[Gd+3].[Gd+3].[Gd+3].[Gd+3] (centres unmarked)  amide hydrolysis (LC-MS; 1 mmol/L, 35 days, pH 1.2, 37°C): < 15%
C[C@@H]1OC(=O)[C@H](Cc2ccccc2)[C@H]1O  DT50 (aerobic dark soil incubation; clay loam soil; 20 °C, persistence endpoint): 0.12 days
Cc1cn([C@H]2C[C@H]([18F])[C@@H](CO)O2)c(=O)[nH]c1=O  nasal cavity clearance time (PET/CT; Sprague-Dawley rat; intranasal): ≤ 20 min
N[C@@H](C[18F])C(=O)O  tumour-to-muscle ratio (PET imaging; female athymic nude mice, U-87 MG xenograft; intravenous, 20 min; baseline: tumour over muscle): 1.63 ± 0.26
Cc1ccc(C(=O)N(CCCN)C(c2nc3snc(C)c3c(=O)n2Cc2ccccc2)C(C)C)cc1 (centres unmarked)  patients with adverse event (mucosal inflammation grade ≥3 (CTCAE); human patients; intravenous, 10 mg/day): 0%
O=C(Nc1nc2cccc(-c3ccc(CN4CCS(=O)(=O)CC4)cc3)n2n1)C1CC1  treatment-emergent adverse events (refers to: nausea; human rheumatoid arthritis patients; oral, 150 mg once daily, 4 weeks, regardless of relatedness): 6.7%
Cc1ccc([C@@H]2O[C@H](CO)[C@@H](O)[C@H](O)[C@H]2O)cc1Cc1ccc(-c2ccc(F)cc2)s1  urinary potassium excretion change (Japanese type 2 diabetes patients; 25 mg, day 2, 24 h urine collection; baseline: baseline): -9.47 mEq

Repeated from above:
Cc1nc(-c2cnc(NC(C)C)n(C)c2=O)ccc1Oc1ccnc(-c2cnn(C)c2)c1  apparent volume of distribution (DBA/1 mouse, female, plasma; oral, 15 mg/kg, single dose): 1.17 L/kg
Cc1c(Cl)c(C)[n+]([O-])c(Cl)c1-c1noc(-c2cc(O)c(O)c([N+](=O)[O-])c2)n1  adverse event incidence (refers to: Severe severity; healthy Caucasian subjects; oral, 25 mg): 0%
O=C(Nc1ccc(OC(F)(F)Cl)cc1)c1cnc(N2CC[C@@H](O)C2)c(-c2ccn[nH]2)c1  any-grade event rate (per treatment cycle, refers to: amylase increase; human patients; oral, dose not given, 28 day cycle): 2.2%
